# Experimental data collected from several papers.
# Parts stem from different laboratories: compare values within a part only.
# Chain of UniProt P30530 (whole entry, looked up): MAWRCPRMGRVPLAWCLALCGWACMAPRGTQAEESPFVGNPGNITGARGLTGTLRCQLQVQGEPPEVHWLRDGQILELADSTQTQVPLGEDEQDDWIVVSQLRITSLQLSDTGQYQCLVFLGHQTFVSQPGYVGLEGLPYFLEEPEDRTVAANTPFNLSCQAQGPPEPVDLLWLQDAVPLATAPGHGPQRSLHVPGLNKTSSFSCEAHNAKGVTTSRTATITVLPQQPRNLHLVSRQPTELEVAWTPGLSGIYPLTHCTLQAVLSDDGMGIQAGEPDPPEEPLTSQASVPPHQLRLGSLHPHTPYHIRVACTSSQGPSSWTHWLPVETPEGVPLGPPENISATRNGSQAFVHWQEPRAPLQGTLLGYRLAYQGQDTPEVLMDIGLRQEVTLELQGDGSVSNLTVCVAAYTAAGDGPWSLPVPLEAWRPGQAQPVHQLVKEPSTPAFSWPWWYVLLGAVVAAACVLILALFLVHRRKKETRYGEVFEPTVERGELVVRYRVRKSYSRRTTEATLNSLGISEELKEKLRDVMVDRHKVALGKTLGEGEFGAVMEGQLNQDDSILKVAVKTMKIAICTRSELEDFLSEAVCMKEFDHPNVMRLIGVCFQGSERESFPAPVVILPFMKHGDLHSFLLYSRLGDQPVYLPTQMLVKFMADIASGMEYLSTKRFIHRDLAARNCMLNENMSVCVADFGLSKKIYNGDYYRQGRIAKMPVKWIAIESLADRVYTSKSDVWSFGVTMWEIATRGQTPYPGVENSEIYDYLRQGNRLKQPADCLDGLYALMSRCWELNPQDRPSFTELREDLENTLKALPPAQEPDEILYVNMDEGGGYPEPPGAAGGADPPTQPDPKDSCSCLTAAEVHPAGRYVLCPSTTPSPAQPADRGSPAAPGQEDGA
# Chain of UniProt P43403 (whole entry, looked up): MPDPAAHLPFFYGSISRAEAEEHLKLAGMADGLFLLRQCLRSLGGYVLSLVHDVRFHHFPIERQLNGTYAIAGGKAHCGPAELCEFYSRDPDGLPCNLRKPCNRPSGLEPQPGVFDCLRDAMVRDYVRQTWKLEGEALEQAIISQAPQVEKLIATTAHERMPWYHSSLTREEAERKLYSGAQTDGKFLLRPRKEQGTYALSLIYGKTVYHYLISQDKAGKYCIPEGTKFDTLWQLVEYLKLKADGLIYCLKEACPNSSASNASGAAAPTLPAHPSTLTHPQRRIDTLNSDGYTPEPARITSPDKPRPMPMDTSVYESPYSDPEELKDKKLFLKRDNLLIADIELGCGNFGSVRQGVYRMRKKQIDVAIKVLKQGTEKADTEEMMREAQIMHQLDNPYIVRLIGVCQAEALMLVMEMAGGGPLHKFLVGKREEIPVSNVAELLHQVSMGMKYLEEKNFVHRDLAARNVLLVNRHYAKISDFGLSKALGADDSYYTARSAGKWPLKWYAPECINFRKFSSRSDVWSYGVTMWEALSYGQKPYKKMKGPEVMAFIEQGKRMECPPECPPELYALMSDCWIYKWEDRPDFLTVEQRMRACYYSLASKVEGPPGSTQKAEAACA
# Chain of UniProt P49759 (whole entry, looked up): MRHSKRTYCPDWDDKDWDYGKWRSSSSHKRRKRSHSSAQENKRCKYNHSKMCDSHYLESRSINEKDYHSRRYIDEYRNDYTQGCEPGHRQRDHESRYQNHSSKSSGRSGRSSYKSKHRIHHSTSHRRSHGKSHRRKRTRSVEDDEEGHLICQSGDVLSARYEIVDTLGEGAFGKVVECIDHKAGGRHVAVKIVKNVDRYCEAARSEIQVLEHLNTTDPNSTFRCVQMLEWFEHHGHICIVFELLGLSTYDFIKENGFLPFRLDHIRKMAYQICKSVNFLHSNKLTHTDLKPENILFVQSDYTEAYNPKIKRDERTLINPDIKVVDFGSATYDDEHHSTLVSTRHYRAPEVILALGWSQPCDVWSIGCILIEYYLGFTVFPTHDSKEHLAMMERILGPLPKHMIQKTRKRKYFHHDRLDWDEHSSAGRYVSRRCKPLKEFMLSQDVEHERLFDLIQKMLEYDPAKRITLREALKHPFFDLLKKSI
# Chain of UniProt Q00537 (whole entry, looked up): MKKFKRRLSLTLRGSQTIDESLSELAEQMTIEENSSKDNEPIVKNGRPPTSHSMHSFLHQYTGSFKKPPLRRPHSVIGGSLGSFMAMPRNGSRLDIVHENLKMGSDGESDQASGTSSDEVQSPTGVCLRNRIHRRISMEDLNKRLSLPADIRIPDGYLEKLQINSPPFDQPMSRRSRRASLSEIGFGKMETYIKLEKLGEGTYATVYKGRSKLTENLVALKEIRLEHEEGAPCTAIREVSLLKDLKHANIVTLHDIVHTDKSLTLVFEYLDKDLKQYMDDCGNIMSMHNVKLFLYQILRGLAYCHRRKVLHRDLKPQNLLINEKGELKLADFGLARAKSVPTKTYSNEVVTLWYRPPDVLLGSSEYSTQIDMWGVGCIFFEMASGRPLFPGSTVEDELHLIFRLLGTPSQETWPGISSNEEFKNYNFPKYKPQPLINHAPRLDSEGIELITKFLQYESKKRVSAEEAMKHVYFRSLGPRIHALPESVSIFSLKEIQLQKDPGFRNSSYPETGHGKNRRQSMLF
# Chain of UniProt P50750 (whole entry, looked up): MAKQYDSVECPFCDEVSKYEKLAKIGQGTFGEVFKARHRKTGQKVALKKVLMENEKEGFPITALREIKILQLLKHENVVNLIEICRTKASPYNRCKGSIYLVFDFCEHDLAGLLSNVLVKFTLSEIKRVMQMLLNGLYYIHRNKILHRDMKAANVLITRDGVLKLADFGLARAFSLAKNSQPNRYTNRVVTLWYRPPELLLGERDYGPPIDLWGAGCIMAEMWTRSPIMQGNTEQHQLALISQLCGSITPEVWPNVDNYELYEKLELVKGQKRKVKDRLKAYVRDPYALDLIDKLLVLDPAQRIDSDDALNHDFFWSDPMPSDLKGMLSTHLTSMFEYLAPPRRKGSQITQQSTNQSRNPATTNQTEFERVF
# Chain of UniProt O75914 (whole entry, looked up): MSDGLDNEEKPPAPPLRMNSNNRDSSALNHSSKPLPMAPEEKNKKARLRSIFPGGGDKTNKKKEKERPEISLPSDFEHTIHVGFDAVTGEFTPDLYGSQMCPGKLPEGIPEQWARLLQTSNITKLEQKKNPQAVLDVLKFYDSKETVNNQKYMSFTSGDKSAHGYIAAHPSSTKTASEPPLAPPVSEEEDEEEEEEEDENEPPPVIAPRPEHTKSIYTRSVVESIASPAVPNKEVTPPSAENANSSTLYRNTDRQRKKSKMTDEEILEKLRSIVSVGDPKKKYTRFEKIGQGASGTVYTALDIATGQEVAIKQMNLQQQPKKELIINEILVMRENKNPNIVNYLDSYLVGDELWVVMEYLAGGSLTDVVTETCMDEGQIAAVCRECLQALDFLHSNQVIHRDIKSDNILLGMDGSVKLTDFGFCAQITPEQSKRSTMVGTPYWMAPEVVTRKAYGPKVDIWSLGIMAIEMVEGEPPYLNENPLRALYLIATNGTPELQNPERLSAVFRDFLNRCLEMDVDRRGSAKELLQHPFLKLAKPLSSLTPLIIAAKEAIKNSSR
# Chain of UniProt P48730 (whole entry, looked up): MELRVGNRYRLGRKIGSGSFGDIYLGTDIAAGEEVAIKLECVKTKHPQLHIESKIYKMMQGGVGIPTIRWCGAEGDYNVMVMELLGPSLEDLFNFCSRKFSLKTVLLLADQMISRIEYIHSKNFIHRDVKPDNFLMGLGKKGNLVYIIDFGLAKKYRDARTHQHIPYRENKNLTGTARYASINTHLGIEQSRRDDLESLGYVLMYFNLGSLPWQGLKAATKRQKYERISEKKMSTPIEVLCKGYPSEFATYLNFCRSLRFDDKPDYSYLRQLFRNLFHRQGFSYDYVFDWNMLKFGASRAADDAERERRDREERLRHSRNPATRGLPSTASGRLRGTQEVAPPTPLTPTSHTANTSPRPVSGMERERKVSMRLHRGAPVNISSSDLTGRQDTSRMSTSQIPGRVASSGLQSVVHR
# Chain of UniProt P31152 (whole entry, looked up): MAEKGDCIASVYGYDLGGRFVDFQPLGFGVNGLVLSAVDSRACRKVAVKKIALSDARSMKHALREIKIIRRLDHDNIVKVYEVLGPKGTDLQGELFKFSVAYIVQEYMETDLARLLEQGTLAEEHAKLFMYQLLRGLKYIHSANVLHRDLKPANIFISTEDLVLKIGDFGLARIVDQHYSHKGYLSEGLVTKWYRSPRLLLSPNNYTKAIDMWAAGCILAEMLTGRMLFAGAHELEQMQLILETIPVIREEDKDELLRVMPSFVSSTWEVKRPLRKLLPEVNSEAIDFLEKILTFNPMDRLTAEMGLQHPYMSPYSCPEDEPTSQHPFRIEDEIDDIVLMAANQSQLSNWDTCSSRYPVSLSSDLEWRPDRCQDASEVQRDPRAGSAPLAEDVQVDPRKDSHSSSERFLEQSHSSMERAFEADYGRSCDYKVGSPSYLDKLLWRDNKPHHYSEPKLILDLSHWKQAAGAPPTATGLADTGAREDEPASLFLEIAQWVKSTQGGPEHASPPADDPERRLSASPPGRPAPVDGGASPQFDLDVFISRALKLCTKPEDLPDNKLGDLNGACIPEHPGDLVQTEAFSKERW

# Series 1 — observed: enzyme activity; action: inhibitor; tested at: 0.5 µM; relative to: control
# Target: Calcium/calmodulin-dependent protein kinase type II subunit alpha (CAMK2A, Homo sapiens, UniProt Q9UQM7)
# Chain of UniProt Q9UQM7 (whole entry, looked up): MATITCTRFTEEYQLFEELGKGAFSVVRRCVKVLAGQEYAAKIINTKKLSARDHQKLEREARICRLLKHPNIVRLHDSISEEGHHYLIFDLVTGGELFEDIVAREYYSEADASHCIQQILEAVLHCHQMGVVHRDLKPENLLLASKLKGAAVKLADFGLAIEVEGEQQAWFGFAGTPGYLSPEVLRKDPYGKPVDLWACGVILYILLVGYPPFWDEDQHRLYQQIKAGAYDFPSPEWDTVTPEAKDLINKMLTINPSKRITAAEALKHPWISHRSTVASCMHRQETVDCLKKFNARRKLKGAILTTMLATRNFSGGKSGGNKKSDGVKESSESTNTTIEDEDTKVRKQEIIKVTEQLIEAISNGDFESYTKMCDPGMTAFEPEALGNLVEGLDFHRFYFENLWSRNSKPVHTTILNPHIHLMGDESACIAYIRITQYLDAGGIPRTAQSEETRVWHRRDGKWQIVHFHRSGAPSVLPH
SMILES,remaining activity
COc1cc2ncnc(Nc3ccc(F)c(Cl)c3)c2cc1OCCCN1CCOCC1,94.4%
OCC(O)CCON=C1C(c2c(O)[nH]c3ccccc23)=Nc2ccccc21 (stereo not shown),12.2%
NCCNc1ncc(C(N)=O)c(Nc2cccc(C(F)(F)F)c2)n1,82.5%
Nc1[nH]nc2nc3ccccc3nc12,99.5%
COc1ccc(C(=O)Nc2sc3c(c2C(N)=O)CCCC3)cc1OC,100%
CO[C@H]1C[C@@H]2CC[C@@H](C)[C@@](O)(O2)C(=O)C(=O)N2CCCC[C@H]2C(=O)O[C@H]([C@H](C)C[C@@H]2CC[C@@H](O)[C@H](OC)C2)CC(=O)[C@H](C)/C=C(\C)[C@@H](O)[C@@H](OC)C(=O)[C@H](C)C[C@H](C)/C=C/C=C/C=C/1C,105%
Oc1ccc(-c2nc(-c3ccncc3)c(-c3ccc(F)cc3)[nH]2)cc1,104%
Nc1ccc2ncnc(NCCc3ccc(Oc4ccccc4)cc3)c2c1,71.3%
COc1cc2nccc(Oc3ccc(NC(=S)NC(=O)c4ccccc4C)cc3)c2cc1OC,85.6%
O=C(CCCc1ccc(-c2ccccc2F)cc1)Nc1ccc(O)cc1,116%
COc1ccc(OC)c2c(=S)c3ccccc3[nH]c12,100%
CNC(=O)c1cc(Oc2ccc(NC(=O)Nc3ccc(Cl)c(C(F)(F)F)c3)cc2)ccn1,95.3%
Cc1nc(-c2ccccc2)c(-c2ccncc2)o1,104%
Cn1sc(=O)n(Cc2ccccc2)c1=O,106%
O=c1c2ccccc2[nH]c(=S)n1CCN1CCC(=C(c2ccc(F)cc2)c2ccc(F)cc2)CC1,105%
O=C(O)c1ccc2c3c1cccc3c(=O)n1c3ccccc3nc21,85.2%

# Series 2 — observed: cell-free assay; technique: competition with immobilised ligand; tested at: 1 µM
# SMILES: CS(=O)(=O)c1cc(C2(NC(=O)c3cncc4c3cnn4-c3ccc(F)cc3)CC2)ccn1
target,remaining binding [%]
"FLT3 (Homo sapiens, UniProt P36888, R834Q)",75
"SIK2 (Homo sapiens, UniProt Q9H0K1)",100
"CDK17 (Homo sapiens, UniProt Q00537)",79
"AXL (Homo sapiens, UniProt P30530)",100
"CSNK1D (Homo sapiens, UniProt P48730)",99
"PAK3 (Homo sapiens, UniProt O75914)",100
"MAP4K2 (Homo sapiens, UniProt Q12851)",100
"Receptor-type tyrosine-protein kinase FLT3, autoinhibited (FLT3, Homo sapiens, UniProt P36888)",93
"EPHA4 (Homo sapiens, UniProt P54764)",100
"ZAP70 (Homo sapiens, UniProt P43403)",71
"PKN1 (Homo sapiens, UniProt Q16512)",100
"MAPK4 (Homo sapiens, UniProt P31152)",79
"NEK5 (Homo sapiens, UniProt Q6P3R8)",100
"CDK9 (Homo sapiens, UniProt P50750)",91
"CDKL5 (Homo sapiens, UniProt O76039)",89
"WNK1 (Homo sapiens, UniProt Q9H4A3)",100
"CLK1 (Homo sapiens, UniProt P49759)",98

# Series 3 — technique: protein binding microarray; form: double-stranded DNA, one strand shown; matrix: in vitro; tested at: not given; relative to: not given; reading: higher = stronger binding
# Target: Histone acetyltransferase KAT6A, both winged helices, GST fusion (KAT6A, Homo sapiens, UniProt Q92794, residues 1-181)
# Setting: 8-mer, flanks averaged, mean of 2 arrays, mostly near background
# Construct (chain): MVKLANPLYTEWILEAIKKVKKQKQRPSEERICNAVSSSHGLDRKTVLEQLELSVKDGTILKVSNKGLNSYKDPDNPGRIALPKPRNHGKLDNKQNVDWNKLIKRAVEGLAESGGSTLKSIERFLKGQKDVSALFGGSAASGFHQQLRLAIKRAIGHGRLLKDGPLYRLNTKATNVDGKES
Sequence,E-score
AAGCCCCT,-0.13
CAGTACGA,-0.0915
AATTACGG,0.126
ACCTGAGG,-0.138
CGCGCTCC,0.321
GTAGCCAC,-0.125
CTTATGAC,-0.0204
AATGCTGG,-0.165

# Series 4 — technique: protein-binding microarray; form: hairpin DNA; matrix: in vitro; tested at: not given; relative to: not given; reading: higher = stronger binding
# Target: Protein C-ets-1, full length (ETS1, Homo sapiens, UniProt P14921, residues 1-441)
# Setting: whole hairpin DNA, median over replicate spots
# Residues (chain): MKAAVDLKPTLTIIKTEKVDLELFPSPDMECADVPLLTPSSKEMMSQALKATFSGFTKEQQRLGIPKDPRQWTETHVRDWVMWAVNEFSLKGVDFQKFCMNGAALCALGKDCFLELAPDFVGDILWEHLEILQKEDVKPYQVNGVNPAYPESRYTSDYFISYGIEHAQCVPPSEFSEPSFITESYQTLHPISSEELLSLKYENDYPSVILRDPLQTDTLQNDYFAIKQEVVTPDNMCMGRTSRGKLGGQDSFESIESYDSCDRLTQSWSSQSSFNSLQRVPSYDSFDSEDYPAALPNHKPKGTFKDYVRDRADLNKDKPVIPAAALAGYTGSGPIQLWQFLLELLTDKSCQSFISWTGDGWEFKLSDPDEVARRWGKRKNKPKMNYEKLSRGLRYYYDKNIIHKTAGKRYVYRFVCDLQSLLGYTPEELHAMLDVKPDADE
Sequence,median fluorescence [a.u.]
GAGGCCAGTCGGCGGTTGCCTCCTGGCAACCGCCGACTGGCCTCACACTC (5mC at 13),552
GAGGCCAGCCGGCGGTTGCCTCCTGGCAACCGCCGGCTGGCCTCACACTC (5mC at 13),551
GAGGCCCGCCGGAAGTTGCCTCCTGGCAACTTCCGGCGGGCCTCACACTC,8250
GAGGCCTGTCGGAAGTTGCCTCCTGGCAACTTCCGACAGGCCTCACACTC,3050
GAGGCCAGTCGGAAGCGGCCTCCTGGCCGCTTCCGACTGGCCTCACACTC (5mC at 16 28),1750
GAGGCCAGCCGGAACGTGCCTCCTGGCACGTTCCGGCTGGCCTCACACTC (5mC at 15 29),1000
GAGGCCAGTCCGAAGTTGCCTCCTGGCAACTTCGGACTGGCCTCACACTC (5mC at 11 33),537
GAGGCCCGCCGGAAGTTGCCTCCTGGCAACTTCCGGCGGGCCTCACACTC (5mC at 7),8560

# Repeated from above (series 1):
SMILES,remaining activity
COc1ccc(C(=O)Nc2sc3c(c2C(N)=O)CCCC3)cc1OC,100%
CO[C@H]1C[C@@H]2CC[C@@H](C)[C@@](O)(O2)C(=O)C(=O)N2CCCC[C@H]2C(=O)O[C@H]([C@H](C)C[C@@H]2CC[C@@H](O)[C@H](OC)C2)CC(=O)[C@H](C)/C=C(\C)[C@@H](O)[C@@H](OC)C(=O)[C@H](C)C[C@H](C)/C=C/C=C/C=C/1C,105%
O=c1c2ccccc2[nH]c(=S)n1CCN1CCC(=C(c2ccc(F)cc2)c2ccc(F)cc2)CC1,105%
OCC(O)CCON=C1C(c2c(O)[nH]c3ccccc23)=Nc2ccccc21 (stereo not shown),12.2%
Nc1ccc2ncnc(NCCc3ccc(Oc4ccccc4)cc3)c2c1,71.3%
